Assay results of several laboratories.
Parts stem from different laboratories: compare values within a part only.

Study 1 — method: RNA Bind-n-Seq; form: RNA; medium: in vitro; concentration: 200 nM; notes: whole 134-nt RNA, ends assumed; with: 150 mM LiCl; baseline: input library; reading: higher = stronger binding; quantity: log2 enrichment; each molecule: 7-deaza-guanosine replaces G
Target: Fragile X messenger ribonucleoprotein 1, C-terminal low-complexity region (Fmr1, Mus musculus, UniProt P35922)
All sequences stand within: GGGAGUUCUACAGUCCGACGAUC … UGGAAUUCUCGGGUGUCAAGG
UCCUGUGCUACACAUCGUAUGUACCGAAUCGGGGUUUUUGGGGUUUUUUUGGGGUGGGGAAAGUAUUAUGUUACGCCGUUCGGAUCUGCA: -0.0777
CCUGUGCUACACAUCGUAUGUACCGAAUCAAACCCCCCCAAACCCCCAAACCCCCCCAAAAAAGUAUUAUGUUACGCCGUUCGGAUCUGC: 1.82
CAAGUCCUGUGCUACACAUCGUAUGUACCGAAUCGGUUUUUGGAAAAAGGUUUGGAAAGUAUUAUGUUACGCCGUUCGGAUCUGCACUUC: -3.06
CACAGACAACACGCACCCACACAGACACAGAGGGAAGGGGUUGGGAUGAGGACAGGGUGCACAGCAGGGCGGGGUAGGACCCCAGCCCCU: 0.291
GUCCUGUGCUACACAUCGUAUGUACCGAAUCGGGCCCCCGGGCCCCCGGCCCCCGGGGAAAGUAUUAUGUUACGCCGUUCGGAUCUGCAC: -1.71
CAAGUCCUGUGCUACACAUCGUAUGUACCGAAUCGGUUUUGGUUUUGGGUUUUGGGAAAGUAUUAUGUUACGCCGUUCGGAUCUGCACUU: -1.83
GCUGUUCUUGCCUUAGCUGCAUCUUGGACCUCAAGACAAGUAGGAGAACGGACGUUGACCGGUACGGUAAUAGACAGUGGAGAUGGUGUC: -2.73
CCUCAAGUCCUGUGCUACACAUCGUAUGUACCGAAUCGGUUUGGAAAGGAGGAAAGUAUUAUGUUACGCCGUUCGGAUCUGCACUUCCAG: -0.203
UCAAGUCCUGUGCUACACAUCGUAUGUACCGAAUCGGGUUGGGGUUGGGGUUGGAAAGUAUUAUGUUACGCCGUUCGGAUCUGCACUUCC: -1.01
ACCAUGCAGGUGGGCAUCUUUGGGAAGUGGGGCAAGGGGGGGAUAGGGAGGGGGGUAAGACUUUGGGAACAGGUGGUCCCAGGUCGUUUC: 1.27
UGGGAGGUGGAUUUUGUUUAUUUUUUUAGCUCAUUUCCAGGGGUGGGACUUUUUUUUUAAUAUGUGUCAUGAAUAAAGUUGUUUUUGAAA: -0.514

Study 2 — method: RNA Bind-n-Seq; form: RNA; medium: in vitro; concentration: not given; baseline: input RNA pool; reading: higher = stronger binding; quantity: bound/input enrichment
Target: RING finger protein unkempt homolog, zinc fingers 1-6, GST-SBP tag (UNK, Homo sapiens, UniProt Q9C0B0, residues 30-357)
Notes: RNA with constant flanks, human and mouse sites, ends assumed
All sequences stand within: GGGAGUUCUACAGUCCGACGAUC … CAACAGAGGAUUGAGCAUCA
Construct (chain): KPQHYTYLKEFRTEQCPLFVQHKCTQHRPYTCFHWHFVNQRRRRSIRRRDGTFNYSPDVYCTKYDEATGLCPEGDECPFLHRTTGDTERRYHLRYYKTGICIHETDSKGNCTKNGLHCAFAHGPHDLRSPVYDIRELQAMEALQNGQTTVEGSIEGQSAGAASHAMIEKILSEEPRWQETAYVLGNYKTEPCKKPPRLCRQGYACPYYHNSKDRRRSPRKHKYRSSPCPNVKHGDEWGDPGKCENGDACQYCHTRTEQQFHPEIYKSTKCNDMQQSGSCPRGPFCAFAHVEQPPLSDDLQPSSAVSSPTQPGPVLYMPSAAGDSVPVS
AUUGACUGCAAUAAAAUUUAUGAAAGGGUAGUAGAAAAGCCCUCCACAGACUUGCCUCUAGGCACAACAUUUUGGCUAGGACAGAGAAAUAAUGCGCAUGGAUAUUUUAAGGGUAUAAUG: 0.453 ratio
UAAUUUUGCUGGAAUUCCUAACUUUUCAAUGACAUUUUUUUUAACUACUAUAUUGAUUGUCCUUUAAAAAAGAAAAGUGCAUAUUUAUCCAAAAUGUGUAUUUCUUAUACGCUUUUCUUU: 1.03 ratio
UCCGGUUUGGUAAUCAAUACACCUGGAGAAAUGGCUGGAGCCUUCGUGGCAGUGUUUUUACUAGCAAUGUUUUAUGAAGGACUCAAGAUAGCCCGAGAGGGUCUGCUUCGAAAGUCUCAA: 0.128 ratio
UUGAUGCCUUGGGAGUCAGACAUUUGGGACAUCAACAACCAAAUCUGUACAGUUAAAGAUAUUAAGGCAGAACCUCAGCCACUUUCUCCAGCCUCCUCAAGUUAUUCAGUCUCGUCUCCU: 0.238 ratio
GGAGCCACGGGUUCUGUCCAGACUAUCUAUAUGUGUGUGGGAUGUGUGUGUAGAUGGAUGGAUAGAUAGAUAGGCAGGCUACAUAUAGGUUGGCUAUAUAUAGGUUAGCUAUAUACAGGU: 0.877 ratio
GAUCCACAGUUCAAAGCAAACAGAAUCGACCGUUUGAUGAAUAAUCACAUUGAAGAUCCAGAUAAAGGCCUCUCAAAAUCUUCCUCUGAACUAGGUAUGAUUUUCAAUGAACGUGAUCAG: 0.169 ratio
GUGUCAGAGGCCAGGAGCCCAGCCGGGGCGAUGUGGAUGACGCCUUGGGAAAGUUUUCCCUAACACUGAUUGAUUCUUUGGACACUCUUGUGGUAUUAAACAAAACUAAGGAAUUUGAAG: 0.335 ratio
CCUGGUGGGCAUGUGGGCCGUUUCUGCAUCUGGACGGAGAGUGCUUUCCGGAAGUUGGAUGAGCUGUAUGGCACUUGGCGGAAGGCUGCUUCCCUCAAGAGUAACUAUAACCUGCCCAUG: 0.176 ratio
GGGCUCCGGACAGUGACAUCCUCAAGUCACCGAGCUCGGGAAGACAGCUGGCUAAAGUCCUUGUUUGUCAGAAAGGUCGAUCCAAGGAAAGAUGCCCACUCCAACCUCCUAGCCAAAAAG: 0.0864 ratio
GAGGAAGAACAAGAAGAGAACCUUGAAGCAAGUGGAGACUAUAAAUAUUCAGGAAGAGAUAGUUUGAUUUUUUUGGUUGAUGCCUCCAAGGCUAUGUUUGAAUCUCAGAGUGAAGAUGAG: 5.24 ratio
CGCAUCUUUCAUCAGAAUGCAGUCGUGUCUAAGAGUGGGUAUUUUGUGAUAAUGUUUACUAUAGAUCAUUUGUUAAUUUUGAUGCCUUCAUUUUAGCUAAUUUCAGAAUUUUUAUUAGGU: 35.7 ratio

Study 3 — method: protein-binding microarray; form: double-stranded DNA, one strand shown; medium: in vitro; concentration: 940 nM top; notes: 60-bp whole probe; with: salmon DNA 0.4 mg/ml; baseline: random background probes; reading: higher = stronger binding; quantity: fitted relative affinity; all sequences stand within: GCCTAGCAC … GTCTTGATTCGCTTGACGCTGCTG
Target: Interferon regulatory factor 5, full length, phosphomimetic (IRF5, Homo sapiens, UniProt Q13568-2, residues 1-514, S451D/S453D/S456D/S462D)
TTAGGACTGGGGTTTGGGTTAGTGCTA: 0.107 z-score
TTGCTTCCCAATTCTCTTTTCGTGCTA: 1.71 z-score
TCATGTCTGTTTCCTCTTACTGTGCTA: 1.82 z-score
TTAGAGCTCAGTCTCGATTAGTGCTAG: 2.75 z-score
GACGATTTCAGTCTCGAGAGGTGCTAG: 1.41 z-score
GACGAACTGAGTTTCGAGTCGTGCTAG: 5.4 z-score
TCATTTTGCTTTCTTTTACTGTGCTAG: 2.01 z-score
TTAGACCTGAGACTGGATTAGTGCTAG: -0.449 z-score
TGTTTTAATTTTCTCTTTGGGTGCTAG: 1.75 z-score
GACGATATCAGACTGTAGACGTGCTAG: -0.587 z-score
TTAGATGTCGGGTATCGATTAGTGCTA: 2.32 z-score
TTAGGTTTCGGACTGAGTTAGTGCTAG: 6.94 z-score
TTAGGTTTCGGGTATCGTTTAGTGCTA: 11.6 z-score
TCATTTTTTTTTTTACTACTGTGCTAG: 1.41 z-score
TGAGGTATCGGGTATCGGTTAGTGCTA: 5.52 z-score
TCATTTTTCCCTCTGGAACTGTGCTAG: 0.337 z-score
TTAGATTTCTGGTTTCGATTAGTGCTA: 8.13 z-score
TCACATTTCTGTTTTTGACTGTGCTAG: 0.99 z-score
GACGGTATCGGTTACGGGACGTGCTAG: 8.41 z-score
GACGGTATCCTTATCCTGTCGTGCTAG: 0.704 z-score
CTGCCTTCAGAGCTGTCTGTGTGCTAG: -0.22 z-score
TTAGGACTGGACATTCGGTTAGTGCTA: -0.392 z-score
GACGCTTTCAGACTGGAGACGTGCTAG: -0.193 z-score
CCACACACCATTCTCGGGACGTGCTAG: 1.3 z-score
GACGGACCGCTACTGCTGACGTGCTAG: -0.647 z-score

Study 4 — method: RNA Bind-n-Seq; form: RNA; medium: in vitro; concentration: 365 nM; baseline: no-protein control; reading: higher = stronger binding; quantity: RBNS enrichment (R)
Target: RNA binding protein fox-1 homolog 2, RRM domain, GST-SBP tag (RBFOX2, Homo sapiens, UniProt O43251-10, residues 100-194)
Notes: natural RNA segment, single round, ends assumed
All sequences stand within: GGGAGUUCUACAGUCCGACGAUC … UGGAAUUCUCGGGUGCCAA
Residues (chain): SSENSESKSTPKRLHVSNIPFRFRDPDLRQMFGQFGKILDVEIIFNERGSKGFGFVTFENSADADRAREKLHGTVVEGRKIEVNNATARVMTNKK
GGAAGAACAGCCUUUUGCAUCUGAGGCGACCAUUUUUACACCAUGCAGAUCUUCGUGGUUAUCAUCUCAAAGCCAUGUUCAGCAGCAGCGUUUGGACAGCAGUGUUCUGU: 0.965
UCUAUUGUAAAAUUUCAUUUUCACUAAGUAACACCCAGUAGAUAAUUCCUAUGGAGCAGUGGUGUUCCAAAUUCUCCAUUACCUCUAUGCCUAAUAUUCAUCAGCCUUCA: 0.433
AAAAGACUUUAUGUGGAUCUUGUAAAACAGAACCAGAUCUCCUUCUGGGGAAGGCCUUGCCUCUAGGAUGGGCAAGGUUGACUAGGGAUAGUCCCAAAGCAUGACCACAA: 2.75
UGUCGAUCUUGAAUUCCCUGAAAAAAUUUCUAUAGGAAAUGAAGCUUCCCUGGUCCCCUCCUUUCUGGCCAUUGUCAUCCAUUUCCCAGUUAGGGCAACAAUGAAGGAGG: 0.631
CAGCUCAUCUUAAUAUUUUCCAUUUUUAUUAGAGGAAGUAGGACAGAGUUGUGUUUUUCUUUAUAAACAAAUGAUAAACUAGCUUUUUUAAAAAGUGACUGUUAGAACUU: 0.339
CUUCCCUGCCUCCAGGUCAGGGAGCAGCUGCAGUGAGGGUGGGGAGGUGAGGGCUUUGUACACGUGUGUCCUCUGCUGUCAUGAACUUGGGCUGGACUGUGAGCAGCUCU: 0.852
AUUAUUCCUGCUCGCCAGUGAGAGGCGUUUAAGUCGCGCUGUGCAUCGUACCUUCAGUUUAGGCUGUUUUCAUGACCUCACAUCUGUGUAGCACAAAGGGUGUUAUCUUC: 0.626
UCCCAUGCAAGUUCUUUUGGGAACACCCAGAAAACUUCUCUGAGAAGAAAAAUGGAAGGUAAGUUGAGUUGCUCCUUUCCCAGUUCCUAGGAAUAGGCAAGAAGCCAGUC: 1.04
UAGCCUGUAUACCAGGCUUUUCCCCACAUUGUCAGGUAGAGCACCAGCUUCCCUGACCGCUGCUGCUCGGGGAGGGCUGGGGCUGGCCGGGGGUCCUGUGGAGGAGUACA: 0.446
GAGGUCAGGAUGGAACUACCUCAUUCGGCAAAUUAGCCCCAAAUUGAGCGCUGAAUCGUGUCCCAUGAGAUCAGGCGCCAUCUGUAAAGUCUCCUCUGGAAAUGCCAAUC: 0.514
AGGGACUUGGGUGGGUACUUGGGUGAGGAUCCCUGAAGGCCUUCAACCCGAGAAAACAAACCCAGGUUGGCGACUGCAACAGGAACUUGGAGUGGAGAGGAAAAGCAUCA: 1.55
AAUGUCAGUGAACAUGAGUAUUACUUCAAAAUCUUACAUCACUUGAUGCUAUAUUCAUUUAUGUCUAAAUCUCUGCUAACAGAUGAAAAUAAUAAAAUUCUAAUAAAAGU: 0.813

Some of these lines once more (study 2):
CGCAUCUUUCAUCAGAAUGCAGUCGUGUCUAAGAGUGGGUAUUUUGUGAUAAUGUUUACUAUAGAUCAUUUGUUAAUUUUGAUGCCUUCAUUUUAGCUAAUUUCAGAAUUUUUAUUAGGU: 35.7 ratio
GUGUCAGAGGCCAGGAGCCCAGCCGGGGCGAUGUGGAUGACGCCUUGGGAAAGUUUUCCCUAACACUGAUUGAUUCUUUGGACACUCUUGUGGUAUUAAACAAAACUAAGGAAUUUGAAG: 0.335 ratio
GGGCUCCGGACAGUGACAUCCUCAAGUCACCGAGCUCGGGAAGACAGCUGGCUAAAGUCCUUGUUUGUCAGAAAGGUCGAUCCAAGGAAAGAUGCCCACUCCAACCUCCUAGCCAAAAAG: 0.0864 ratio
UAAUUUUGCUGGAAUUCCUAACUUUUCAAUGACAUUUUUUUUAACUACUAUAUUGAUUGUCCUUUAAAAAAGAAAAGUGCAUAUUUAUCCAAAAUGUGUAUUUCUUAUACGCUUUUCUUU: 1.03 ratio
GAGGAAGAACAAGAAGAGAACCUUGAAGCAAGUGGAGACUAUAAAUAUUCAGGAAGAGAUAGUUUGAUUUUUUUGGUUGAUGCCUCCAAGGCUAUGUUUGAAUCUCAGAGUGAAGAUGAG: 5.24 ratio
UCCGGUUUGGUAAUCAAUACACCUGGAGAAAUGGCUGGAGCCUUCGUGGCAGUGUUUUUACUAGCAAUGUUUUAUGAAGGACUCAAGAUAGCCCGAGAGGGUCUGCUUCGAAAGUCUCAA: 0.128 ratio
GGAGCCACGGGUUCUGUCCAGACUAUCUAUAUGUGUGUGGGAUGUGUGUGUAGAUGGAUGGAUAGAUAGAUAGGCAGGCUACAUAUAGGUUGGCUAUAUAUAGGUUAGCUAUAUACAGGU: 0.877 ratio
